Experimental data of several laboratories.
A part holds a random share of what one study measured.
Sequence of UniProt Q38830 (whole entry, looked up): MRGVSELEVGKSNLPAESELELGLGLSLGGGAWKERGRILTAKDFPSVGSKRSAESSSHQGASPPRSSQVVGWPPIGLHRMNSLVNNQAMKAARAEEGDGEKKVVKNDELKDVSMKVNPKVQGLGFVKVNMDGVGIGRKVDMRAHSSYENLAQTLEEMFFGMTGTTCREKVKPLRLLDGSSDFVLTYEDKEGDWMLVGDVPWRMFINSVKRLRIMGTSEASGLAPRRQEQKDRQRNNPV
Sequence of UniProt Q38828 (whole entry, looked up): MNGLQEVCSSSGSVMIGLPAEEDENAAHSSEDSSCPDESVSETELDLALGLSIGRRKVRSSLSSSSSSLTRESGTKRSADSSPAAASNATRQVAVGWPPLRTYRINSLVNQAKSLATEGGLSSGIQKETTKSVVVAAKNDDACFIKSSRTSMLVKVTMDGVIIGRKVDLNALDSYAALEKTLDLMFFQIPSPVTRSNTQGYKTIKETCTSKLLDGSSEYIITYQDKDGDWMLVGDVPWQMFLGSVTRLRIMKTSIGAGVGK
Sequence of UniProt Q96RR4 (whole entry, looked up): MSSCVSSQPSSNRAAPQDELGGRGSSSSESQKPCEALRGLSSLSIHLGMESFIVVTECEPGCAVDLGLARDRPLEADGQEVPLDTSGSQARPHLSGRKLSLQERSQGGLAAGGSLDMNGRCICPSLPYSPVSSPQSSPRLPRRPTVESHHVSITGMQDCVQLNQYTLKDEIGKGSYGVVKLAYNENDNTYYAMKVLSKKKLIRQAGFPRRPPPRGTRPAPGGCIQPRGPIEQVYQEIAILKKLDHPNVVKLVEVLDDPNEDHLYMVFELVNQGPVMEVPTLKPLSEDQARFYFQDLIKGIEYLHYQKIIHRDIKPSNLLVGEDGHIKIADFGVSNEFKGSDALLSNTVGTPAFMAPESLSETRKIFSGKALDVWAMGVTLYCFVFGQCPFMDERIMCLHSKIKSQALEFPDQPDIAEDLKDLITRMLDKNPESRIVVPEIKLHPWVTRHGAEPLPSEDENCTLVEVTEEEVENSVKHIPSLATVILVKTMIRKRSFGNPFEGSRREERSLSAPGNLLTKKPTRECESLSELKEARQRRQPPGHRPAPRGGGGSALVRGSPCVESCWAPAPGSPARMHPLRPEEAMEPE
Sequence of UniProt Q9ZTX8 (whole entry, looked up): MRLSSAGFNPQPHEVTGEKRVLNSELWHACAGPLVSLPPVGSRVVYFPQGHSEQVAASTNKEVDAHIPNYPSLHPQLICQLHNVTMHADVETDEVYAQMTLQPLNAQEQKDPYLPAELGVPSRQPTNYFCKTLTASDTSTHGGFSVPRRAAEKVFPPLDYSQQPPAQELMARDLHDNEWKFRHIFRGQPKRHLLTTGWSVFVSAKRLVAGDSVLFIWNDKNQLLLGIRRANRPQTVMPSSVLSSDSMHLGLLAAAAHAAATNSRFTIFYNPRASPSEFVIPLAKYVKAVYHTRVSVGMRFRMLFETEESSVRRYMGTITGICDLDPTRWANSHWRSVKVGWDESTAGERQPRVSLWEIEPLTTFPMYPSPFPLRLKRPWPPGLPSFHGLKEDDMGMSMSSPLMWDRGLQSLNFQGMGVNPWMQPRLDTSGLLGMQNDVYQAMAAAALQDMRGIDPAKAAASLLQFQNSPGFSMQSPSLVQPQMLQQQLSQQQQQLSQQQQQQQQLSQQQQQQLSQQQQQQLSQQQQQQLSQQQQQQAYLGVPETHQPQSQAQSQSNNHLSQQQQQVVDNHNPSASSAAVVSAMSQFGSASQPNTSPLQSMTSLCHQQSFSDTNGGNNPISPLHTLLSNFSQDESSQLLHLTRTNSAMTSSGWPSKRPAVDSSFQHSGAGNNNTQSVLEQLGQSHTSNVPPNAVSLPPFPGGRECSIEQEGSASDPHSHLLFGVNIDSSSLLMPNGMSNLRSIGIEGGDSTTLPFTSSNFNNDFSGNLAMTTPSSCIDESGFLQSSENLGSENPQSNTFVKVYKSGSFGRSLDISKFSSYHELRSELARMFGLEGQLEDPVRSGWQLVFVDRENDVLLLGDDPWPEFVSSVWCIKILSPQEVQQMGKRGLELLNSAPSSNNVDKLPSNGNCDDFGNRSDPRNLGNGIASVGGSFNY
Sequence of UniProt Q93WC4 (whole entry, looked up): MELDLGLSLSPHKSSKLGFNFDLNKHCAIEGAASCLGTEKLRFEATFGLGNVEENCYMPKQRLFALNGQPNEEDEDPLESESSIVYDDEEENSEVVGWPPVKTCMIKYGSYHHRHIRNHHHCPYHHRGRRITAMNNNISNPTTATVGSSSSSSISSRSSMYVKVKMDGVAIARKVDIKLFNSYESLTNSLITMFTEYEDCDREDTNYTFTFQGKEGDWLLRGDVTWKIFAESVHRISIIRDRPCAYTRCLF
Sequence of UniProt Q9P0L2 (whole entry, looked up): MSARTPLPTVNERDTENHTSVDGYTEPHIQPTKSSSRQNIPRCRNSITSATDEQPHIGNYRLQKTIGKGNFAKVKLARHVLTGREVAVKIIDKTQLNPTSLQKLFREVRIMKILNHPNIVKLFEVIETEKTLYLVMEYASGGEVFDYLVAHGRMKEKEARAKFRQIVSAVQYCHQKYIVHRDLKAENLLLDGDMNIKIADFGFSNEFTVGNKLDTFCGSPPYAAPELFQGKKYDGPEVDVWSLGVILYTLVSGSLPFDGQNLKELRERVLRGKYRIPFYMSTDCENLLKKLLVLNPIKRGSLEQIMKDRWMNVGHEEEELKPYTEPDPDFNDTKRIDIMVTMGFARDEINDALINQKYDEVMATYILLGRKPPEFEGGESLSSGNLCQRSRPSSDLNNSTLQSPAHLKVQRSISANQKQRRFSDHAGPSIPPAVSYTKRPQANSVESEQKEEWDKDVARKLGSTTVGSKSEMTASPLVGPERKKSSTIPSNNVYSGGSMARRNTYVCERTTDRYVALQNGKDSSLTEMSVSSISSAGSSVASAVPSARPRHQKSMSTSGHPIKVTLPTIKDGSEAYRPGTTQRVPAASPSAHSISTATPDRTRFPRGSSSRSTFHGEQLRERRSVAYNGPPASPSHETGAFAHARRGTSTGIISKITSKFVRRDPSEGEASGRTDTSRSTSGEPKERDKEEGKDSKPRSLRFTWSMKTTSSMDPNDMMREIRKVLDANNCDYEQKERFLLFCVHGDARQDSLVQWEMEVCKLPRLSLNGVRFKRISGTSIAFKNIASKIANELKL
Sequence of UniProt Q93YR9 (whole entry, looked up): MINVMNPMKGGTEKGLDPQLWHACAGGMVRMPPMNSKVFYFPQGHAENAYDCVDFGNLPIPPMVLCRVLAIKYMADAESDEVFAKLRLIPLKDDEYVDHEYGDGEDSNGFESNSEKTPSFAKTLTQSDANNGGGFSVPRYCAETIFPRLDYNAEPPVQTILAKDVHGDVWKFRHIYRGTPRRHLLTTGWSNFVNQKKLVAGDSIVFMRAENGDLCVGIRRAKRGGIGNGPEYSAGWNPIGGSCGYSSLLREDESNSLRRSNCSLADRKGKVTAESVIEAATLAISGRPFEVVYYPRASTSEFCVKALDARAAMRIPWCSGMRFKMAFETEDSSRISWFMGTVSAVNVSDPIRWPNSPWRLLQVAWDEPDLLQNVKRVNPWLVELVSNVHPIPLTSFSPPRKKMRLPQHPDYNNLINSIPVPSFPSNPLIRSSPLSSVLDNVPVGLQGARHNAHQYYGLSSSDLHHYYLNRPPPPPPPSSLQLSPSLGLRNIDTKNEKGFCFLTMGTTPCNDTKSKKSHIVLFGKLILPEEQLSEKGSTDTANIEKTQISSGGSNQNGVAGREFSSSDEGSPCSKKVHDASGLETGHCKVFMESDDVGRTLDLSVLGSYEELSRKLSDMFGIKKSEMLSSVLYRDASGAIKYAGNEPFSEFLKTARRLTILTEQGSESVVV
Sequence of UniProt Q84WU6 (whole entry, looked up): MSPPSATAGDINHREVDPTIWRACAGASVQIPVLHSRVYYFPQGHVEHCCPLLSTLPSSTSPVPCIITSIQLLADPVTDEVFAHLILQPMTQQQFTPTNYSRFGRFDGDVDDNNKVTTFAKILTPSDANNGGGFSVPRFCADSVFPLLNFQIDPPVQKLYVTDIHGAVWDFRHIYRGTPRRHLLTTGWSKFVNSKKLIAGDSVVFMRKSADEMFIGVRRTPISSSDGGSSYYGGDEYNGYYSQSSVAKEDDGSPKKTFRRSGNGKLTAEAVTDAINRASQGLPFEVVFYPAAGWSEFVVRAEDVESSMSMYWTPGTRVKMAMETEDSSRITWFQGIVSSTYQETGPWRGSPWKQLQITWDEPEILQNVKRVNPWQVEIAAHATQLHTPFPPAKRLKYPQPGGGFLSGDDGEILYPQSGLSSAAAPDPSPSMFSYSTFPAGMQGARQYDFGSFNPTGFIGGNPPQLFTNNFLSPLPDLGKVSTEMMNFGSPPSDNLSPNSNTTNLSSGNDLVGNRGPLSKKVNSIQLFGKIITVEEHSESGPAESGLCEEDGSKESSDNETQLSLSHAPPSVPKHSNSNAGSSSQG
Sequence of UniProt Q9C5W9 (whole entry, looked up): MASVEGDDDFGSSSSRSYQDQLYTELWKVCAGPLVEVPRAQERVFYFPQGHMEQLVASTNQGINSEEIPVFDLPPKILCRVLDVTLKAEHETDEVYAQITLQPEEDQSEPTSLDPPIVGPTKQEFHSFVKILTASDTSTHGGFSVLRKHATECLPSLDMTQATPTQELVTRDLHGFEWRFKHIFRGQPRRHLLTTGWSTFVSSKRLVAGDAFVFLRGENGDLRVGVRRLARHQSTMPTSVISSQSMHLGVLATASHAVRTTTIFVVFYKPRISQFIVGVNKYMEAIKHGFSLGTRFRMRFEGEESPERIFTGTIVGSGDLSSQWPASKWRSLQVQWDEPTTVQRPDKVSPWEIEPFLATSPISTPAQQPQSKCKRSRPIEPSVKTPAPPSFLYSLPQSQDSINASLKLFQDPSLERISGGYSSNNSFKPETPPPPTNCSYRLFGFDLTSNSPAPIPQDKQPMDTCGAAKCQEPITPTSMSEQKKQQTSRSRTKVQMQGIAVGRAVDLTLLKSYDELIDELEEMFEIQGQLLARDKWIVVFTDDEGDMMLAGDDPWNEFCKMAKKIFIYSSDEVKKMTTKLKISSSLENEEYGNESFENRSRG

Series 1 — technique: protein binding microarray; molecule type: double-stranded DNA, one strand shown; sample: in vitro; concentration: not given; baseline: not given; reading: higher = stronger binding
Target: Histone acetyltransferase KAT6A, winged helix 1, GST fusion (KAT6A, Homo sapiens, UniProt Q92794, residues 1-85)
Setting: 8-mer, flanks averaged, mean of 2 arrays, mostly near background
Construct (chain): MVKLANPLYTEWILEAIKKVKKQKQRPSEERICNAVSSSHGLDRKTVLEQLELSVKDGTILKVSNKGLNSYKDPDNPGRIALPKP
With `ACCCGAAG` the E-score was 0.00266.
`GTTAAAAC` gave an E-score of 0.0193.
With `ATTTAGCG` the E-score was 0.139.
`CGTTAGAG` gave an E-score of 0.0456.
With `CGCTGAAA` the E-score was 0.11.
`AAGTGACC` gave an E-score of -0.222.
For `TATAGAGA`, the E-score was -0.274.
`ATGTCGGC` gave an E-score of 0.203.

Series 2 — Molecule: B1 (IAA1); technique: two-hybrid; baseline: out of 4 tests; reading: higher = firmer interaction
B1: IAA1 (Arabidopsis thaliana, UniProt P49677); chain MEVTNGLNLKDTELRLGLPGAQEEQQLELSCVRSNNKRKNNDSTEESAPPPAKTQIVGWPPVRSNRKNNNNKNVSYVKVSMDGAPYLRKIDLKMYKNYPELLKALENMFKFTVGEYSEREGYKGSGFVPTYEDKDGDWMLVGDVPWDMFSSSCQKLRIMKGSEAPTAL
The positive tests was 0 (IAA29 (Arabidopsis thaliana, UniProt Q93WC4)).
It gave 0 for positive tests (ARF16 570-670 (Arabidopsis thaliana, UniProt Q93YR9)).
For ARF18 482-602 (Arabidopsis thaliana, UniProt Q9C5W9): positive tests read 0.
It gave 3 for positive tests (IAA14 (Arabidopsis thaliana, UniProt Q38832)).
It gave 1 for positive tests (IAA12 (Arabidopsis thaliana, UniProt Q38830)).
It gave 1 for positive tests (IAA10 (Arabidopsis thaliana, UniProt Q38828)).
For ARF17 (Arabidopsis thaliana, UniProt Q84WU6); weak activation fusion: positive tests read 2.
For ARF6 790-935 (Arabidopsis thaliana, UniProt Q9ZTX8): positive tests read 2.

Series 3 — effect on: cell-free assay; technique: competition with immobilised ligand; concentration: 1 µM
SMILES: CCCOc1ccc([C@@H]2[C@@H](C(=O)O)[C@H](c3ccc4c(c3)OCO4)CN2CC(=O)Nc2c(CC)cccc2CC)cc1
It gave 88% for remaining binding (IGF1R (Homo sapiens, UniProt P08069)).
For MARK1 (Homo sapiens, UniProt Q9P0L2): remaining binding read 100%.
For CAMKK2 (Homo sapiens, UniProt Q96RR4): remaining binding read 84%.

Single results of other studies
`CCOC(=O)[C@@H]1CSCC(=O)N[C@@H](CC)C(=O)N(C)[C@@H](C)C(=O)N[C@H](CC(C)C)C(=O)N2CCC[C@H]2C(=O)N(CC)CC(=O)N[C@@H](CC(C)C)C(=O)N(C)[C@@H](C)C(=O)N[C@@H](CC(C)C)C(=O)N1C` gave a logD of -0.448 (hydrocarbon/water).

A few entries again (series 2):
It gave 0 for positive tests (ARF16 570-670 (Arabidopsis thaliana, UniProt Q93YR9)).
